# Assay results of several laboratories.
# Numbered parts are unrelated; each lists some results of a single study. Substitutions count along the parent as printed.

# Set 1
# Target: CREB3, bZIP domain (human)
# Technique: DHFR protein complementation
# Sample: yeast
# Notes: single substitutions, most at no-binding floor
# Baseline: wild-type JUN-FOS pair
# Direction: higher = stronger binding
# Starting sequence: JUN, bZIP domain (human); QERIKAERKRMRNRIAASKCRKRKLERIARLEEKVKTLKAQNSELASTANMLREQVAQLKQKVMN; partner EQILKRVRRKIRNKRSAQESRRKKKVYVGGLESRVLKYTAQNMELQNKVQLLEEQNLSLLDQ
Change,binding fitness
T48F,-1.56 natural log
R30E,-1.46 natural log
V56H,-1.46 natural log
R30S,-1.41 natural log
E32K,-1.43 natural log
E54G,-1.52 natural log
Q55F,-1.59 natural log
N42K,-1.31 natural log
A49E,-1.5 natural log
K34D,-1.41 natural log
A46C,-1.51 natural log
E44Y,-1.41 natural log
A57M,-1.58 natural log
E54C,-1.45 natural log
T37R,-1.51 natural log
A40I,-1.52 natural log
S47V,-1.4 natural log
L45A,-1.53 natural log
A40P,-1.51 natural log
E33I,-1.48 natural log

# Set 2
# Target: CCNB1, cyclin fold, Cln2 fusion (human)
# Technique: yeast growth competition, sequencing
# Sample: yeast
# Notes: weak parent motif
# Baseline: not given
# Direction: higher = stronger binding
# Starting sequence: ORC1 docking peptide (human); PRARKRLELGNLG
Change,normalised enrichment score
R6D,0.639
G10E,0.19
G13W,-0.51
R4S,0.0536
A3I,-0.447
L9K,0.029
L12A,1.06
G13D,1.09
R6W,-0.66
G10K,0.301
G10I,0.682
G13S,1.06
R4T,1.07
L12H,0.942
P1T,0.827
N11M,1.41
R2E,1.3
A3N,1.46
K5N,0.339
A3S,0.895
L12P,1.02
R4P,0.759
R6L,0.987
E8H,0.396

# Set 3
# Target: Interferon regulatory factor 5, full length, phosphomimetic (IRF5, Homo sapiens, UniProt Q13568-2, residues 1-514, S451D/S453D/S456D/S462D)
# Technique: protein-binding microarray
# Form: double-stranded DNA, one strand shown
# Sample: in vitro
# Tested at: 940 nM top
# Notes: 60-bp whole probe
# Added: salmon DNA 0.4 mg/ml
# Baseline: random background probes
# Direction: higher = stronger binding
# Constant ends, left off below: GCCTAGCAC … GTCTTGATTCGCTTGACGCTGCTG
Strand,fitted relative affinity
GACGTTTTCGACACTGGGGACGTGCTA,0.837 z-score
TACGGTCTCGGTATCGGGACGTGCTAG,4.48 z-score
TTAGGTCTCCTTCTCCTATAGTGCTAG,0.759 z-score
TTAGGTTTCGGTTTCGGTAAGTGCTAG,17.1 z-score
TTAGGTCTCGGTTTCGGATAGTGCTAG,6.68 z-score
GACGGTATCCTTTTCCTGTCGTGCTAG,1.79 z-score
TTAGCTTTCCTTCTCCTTTAGTGCTAG,1.11 z-score
GACGGTCTCCTTTTCCCGACGTGCTAG,1.74 z-score
GACGGTTCCCTTTTGCTGACGTGCTAG,0.65 z-score
TTAGGTATCGGGACTGGGTCAGTGCTA,4.34 z-score
GACGGTAGCGGTATCGGGACGTGCTAG,1.66 z-score
GACGGCATCGACTATCGGGACGTGCTA,-0.716 z-score
GACGGTATCCTACTGTTGACGTGCTAG,-0.202 z-score
CTGCCTAACATGCTTCGAGATGTGCTA,0.0352 z-score
GACGGACTGCTTCTCCAGACGTGCTAG,-0.395 z-score
TTAGGTTTCGTGTTTCGGTTAGTGCTA,7.27 z-score
TTAGAACTGGGGTAACGATTAGTGCTA,-0.167 z-score
TTAGGATTGGACACTGGGTTAGTGCTA,-0.46 z-score
GAAGCCAGCTCTTTCGTTACGTGCTAG,0.117 z-score
TTATATATCAGTCTCGATTAGTGCTAG,3.41 z-score
AGGTTGATGGCTCTCTGGACGTGCTAG,-0.66 z-score
TCAAGTCCCTATCTCCTACTGTGCTAG,0.907 z-score
GACGATTCCAGTTTCGAGTCGTGCTAG,6.87 z-score
GACGGTTTCGATACTGGGGACGTGCTA,12 z-score
TTAGGTATCCTTCTCCTTGAGTGCTAG,0.741 z-score

# Set 4
# Target: ABI1, truncated, D143A, DHFR fusion (Arabidopsis thaliana)
# Technique: DHFR PCA, deep sequencing
# Sample: yeast
# Notes: methotrexate growth selection, single substitutions
# Added: (+)-ABA 0.39 µM
# Baseline: wild-type fitted maximum
# Direction: higher = stronger binding
# Starting sequence: PYL1, truncated, DHFR fusion (Arabidopsis thaliana); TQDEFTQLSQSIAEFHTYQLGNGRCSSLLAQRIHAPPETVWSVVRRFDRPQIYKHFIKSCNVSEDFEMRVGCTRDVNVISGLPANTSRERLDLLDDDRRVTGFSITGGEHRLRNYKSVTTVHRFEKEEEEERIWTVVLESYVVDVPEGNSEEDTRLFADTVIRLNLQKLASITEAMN
Change,relative binding score [%]
A84N,23.6
L20Y,31.2
H110E,30.3
P37N,-13
T101D,-0.838
K168C,32.7
L91A,-4.41
R49N,22.5
T173M,-9.04
L112R,1.46
E67I,33.3
F15E,-0.539
I162N,2.8
E151V,51.1
S117G,2.83
E174A,-0.297

# Set 5
# Target: RNA binding protein fox-1 homolog 2, RRM domain, GST-SBP tag (RBFOX2, Homo sapiens, UniProt O43251-10, residues 100-194)
# Technique: RNA Bind-n-Seq
# Form: RNA
# Sample: in vitro
# Tested at: 365 nM
# Notes: natural RNA segment, single round, ends assumed
# Baseline: no-protein control
# Direction: higher = stronger binding
# Constant ends, left off below: GGGAGUUCUACAGUCCGACGAUC … UGGAAUUCUCGGGUGCCAA
# Target sequence (chain): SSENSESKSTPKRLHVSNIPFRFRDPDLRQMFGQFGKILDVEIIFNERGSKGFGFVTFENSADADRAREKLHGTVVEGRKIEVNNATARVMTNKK
Strand,RBNS enrichment (R)
CAGAGCGAGGAACAAGCCAUUAGGACCUGACCGUUGUAAAUACAGCCGCCCGCCCGCCGGUCCCCAGCCGGGCUCCGUUGGGUUUCCCAUUGUAAAUACUGCCUCGCCCC,0.276
UUUUUUUCUUUUCUUCUUUAAGUAGCUGAAUGUAUAUAUCAGGGAGGAAGAAGCAAGCAAAACUGAGCUUGCCUUCUUCAAGAGUGACCCUUUCGGGCUCCUUUUUUAGG,0.398
AGUGGGAAUUAGGAGAGAAGGUAGGGGUUGGGAAUCAGAGAGAAUGGCUUUGGUCUCUUGCUUGUGGGACUAGCCUGGCUUGGGACUAAAUGCCCUGCUCUGAACACGAA,2.82
GAUAAUUUGUUAGCUGGAACCUAUUCACUUCCGAGAUUCAGACAUAGCCAUGCUGGUGGCCUUCUGAAUCACUGCAUGGAUGUCCCAGGAGGCAGCUCUCCCCACACAGC,1.31
UGGCAAACUGCUCUGUGCUUUCAAACCAAAGUGUUCCCCCCAACCCCAAAUUUGUCUAAGCACUGGCCAGUCUGUUGUGGGCAUUGUUUUCUACAACCAAAUUCUGGGUU,0.395
CCUUGCUGGCCUCAAGCUUGCAAUGCUCCUGCCUCAGCCUCUCAACUUCUAGAAUUACAUGGCUGCACCACUUCACCCAGCCUAUGUAGUUUUAUUUUAUAAAUGACACU,0.374
AGAUUCUUUGAUGCUGGACUCAGGAGGGAAAUCAUUAGCCAACUGUUGACUUACUUAUAGCUAGAUGUCUAUGUGAGAAAGUAUAAUAUAUAUAUAUACACAUAUAUAUG,0.712
UUUAUUUGUGAUGACACAAUAGAGCCAGAAUAUUAGCUAACAACGUUGAAGGAGGUGUUGGGUGUUUUUAAAUAUUUAGUUAAUAUAUUCCUCAUGGACAUAAAAUACAU,1.05
AGAGCUGGGUCACCGGUGCCGAUGCUCUGGCCCUCCCCAAUACGCUGCUUCGUCCCACUGCACCGCCUGGCUGAGGGCGUUAGGGGCUGUGCCUCUUGUGAGGGCCAUUU,0.392
CUUCCUGCAUGAUAGGGAGAGACAAGAAAGAAGAAAUGCUAUUCCACAAGGAAUCUCUUAGAGUUUUGCAGCAAACAGGUGGUGCACAGGUCUGGAAGGUCUGGUCUCCC,9.69
CACAGACUGCCUUAGCCCCCACACCUCUGUCCCUAGGAGAAUGAAUGGGCAGAGUGGAGCUGACACUCUCUCCUCAGGCAGCCUCCUCAGCCUUUAUUCGUCAACGGCCU,0.507
UAUCUAGAUACUGCAGUCAGGUUUGGAAGCUGCCGUACACUCACUGUCUAAAACCCUUGAGGGGCUGUAUUAAUUUGUAUCGCCCCAUGGCUGUGAAAUGCCUUUUUUUU,0.325

# For quick reference, copied from above (set 3):
Strand,fitted relative affinity
TTAGGTCTCGGTTTCGGATAGTGCTAG,6.68 z-score
GACGGTATCCTTTTCCTGTCGTGCTAG,1.79 z-score
TTAGCTTTCCTTCTCCTTTAGTGCTAG,1.11 z-score
GACGGTCTCCTTTTCCCGACGTGCTAG,1.74 z-score
GACGGTTCCCTTTTGCTGACGTGCTAG,0.65 z-score
TTAGGTATCGGGACTGGGTCAGTGCTA,4.34 z-score
GACGGTAGCGGTATCGGGACGTGCTAG,1.66 z-score
GACGGCATCGACTATCGGGACGTGCTA,-0.716 z-score
GACGGTATCCTACTGTTGACGTGCTAG,-0.202 z-score
CTGCCTAACATGCTTCGAGATGTGCTA,0.0352 z-score
GACGGACTGCTTCTCCAGACGTGCTAG,-0.395 z-score
TTAGGTTTCGTGTTTCGGTTAGTGCTA,7.27 z-score
TTAGAACTGGGGTAACGATTAGTGCTA,-0.167 z-score
